Published values collected from several papers.
Protocols differ between the studies behind these lines. Values joined by “and” are separate records of one study, mostly repeats; a detail may differ. ± marks the error that the study gave.
B1: interferon gamma; sequence looked up; chain QDPYVKEAENLKKYFNAGHSDVADNGTLFLGILKNWKEESDRKIMQSQIVSFYFKLFKNFKDDQSIQKSVETIKEDMNVKFFNSNKKKRDDFEKLTNYSVTDLNVQRKAIHELIQVMAELSPAAKTGKRKRSQMLFRG
B2: human DDX42; sequence looked up; chain MNWNKGGPGTKRGFGFGGFAISAGKKEEPKLPQQSHSAFGATSSSSGFGKSAPPQLPSFYKIGSKRANFDEENAYFEDEEEDSSNVDLPYIPAENSPTRQQFHSKPVDSDSDDDPLEAFMAEVEDQAARDMKRLEEKDKERKNVKGIRDDIEEEDDQEAYFRYMAENPTAGVVQEEEEDNLEYDSDGNPIAPTKKIIDPLPPIDHSEIDYPPFEKNFYNEHEEITNLTPQQLIDLRHKLNLRVSGAAPPRPGSSFAHFGFDEQLMHQIRKSEYTQPTPIQCQGVPVALSGRDMIGIAKTGSGKTAAFIWPMLIHIMDQKELEPGDGPIAVIVCPTRELCQQIHAECKRFGKAYNLRSVAVYGGGSMWEQAKALQEGAEIVVCTPGRLIDHVKKKATNLQRVSYLVFDEADRMFDMGFEYQVRSIASHVRPDRQTLLFSATFRKKIEKLARDILIDPIRVVQGDIGEANEDVTQIVEILHSGPSKWNWLTRRLVEFTSSGSVLLFVTKKANAEELANNLKQEGHNLGLLHGDMDQSERNKVISDFKKKDIPVLVATDVAARGLDIPSIKTVINYDVARDIDTHTHRIGRTGRAGEKGVAYTLLTPKDSNFAGDLVRNLEGANQHVSKELLDLAMQNAWFRKSRFKGGKGKKLNIGGGGLGYRERPGLGSENMDRGNNNVMSNYEAYKPSTGAMGDRLTAMKAAFQSQYKSHFVAASLSNQKAGSSAAGASGWTSAGSLNSVPTNSAQQGHNSPDSPVTSAAKGIPGFGNTGNISGAPVTYPSAGAQGVNNTASGNNSREGTGGSNGKRERYTENRGSSRHSHGETGNRHSDSPRHGDGGRHGDGYRHPESSSRHTDGHRHGENRHGGSAGRHGENRGANDGRNGESRKEAFNRESKMEPKMEPKVDSSKMDKVDSKTDKTADGFAVPEPPKRKKSRWDS
B3: recombinant human GDNF; sequence looked up; chain SPDKQMAVLPRRERNRQAAAANPENSRGKGRRGQRGKNRGCVLTAIHLNVTDLGLGYETKEELIFRYCSGSCDAAETTYDKILKNLSRNRRLVSDKVGQACCRPIAFDDDLSFLDDNLVYHILRKHSAKRCGCI

Substance	tested on	test	test system	conditions	how to read	measurement	value
cotadutide		metabolomics, item: hepatic proline	ob/ob mice on AMLN diet, NASH model, liver	dose not given		metabolite level	1.02 ± 0.06 scaled intensity
B1 (interferon gamma)		proteinuria inducer	FVB mice	dose not given, 24 h		urine albumin/creatinine ratio	14.4 and 27.3 and 20.6 and 12.2 and 13.3 and 17.3 and 27 and 13.7
B2 (human DDX42)	PP6C (human)	co-immunoprecipitation, IP-MS	CYB5R4 knockout cells	concentration not given	relative to: CYB5R4 knockout over parental	log2 fold change	0.7
maraviroc		Western blot, item: GSK-3β phospho-Ser9	mice, NSG hu-PBL, HIV-infected, somatosensory cortex	i.p., 120 mg/kg twice daily, 3 weeks post infection, normalised to total GSK-3β	relative to: HIV-infected untreated mice, increase	protein level	4.68 fold
B3 (recombinant human GDNF)		stereology, optical fractionator, item: tyrosine hydroxylase	rat, 6-OHDA lesion model, substantia nigra pars compacta, lesioned side	3 µg/24 h		TH-immunoreactive cell number	130 ± 23.9
heparin sodium			human	intravenous infusion, 8 IU/kg/h, day 1 to 6		aPTT Emax	39.6 s
liraglutide			Wistar rat, female, diet-induced obese	subcutaneous, dose not given, 4 weeks treatment		body weight	556 ± 46 g
human RAB1B	CYB5R4 knockout human cells	PP6 interaction, 3xFLAG-PP6C IP-MS		concentration not given	relative to: CYB5R4 KO over parental	log2 fold change	-0.1
semaglutide			Wistar rat, male, diet-induced obese	subcutaneous, increasing doses once daily, 45 days	relative to: vehicle	body weight reduction	-14.7%
difelikefalin			Japanese haemodialysis patients with pruritus	intravenous, 1.0 µg/kg, 8 weeks		PGIC much improved	38.3%
